Results collected from several papers.
A part holds a random share of what one study measured. “And” joins repeats or separate records; there may be more than shown.
UniProt P42336, sequence (whole entry, unmodified, looked up): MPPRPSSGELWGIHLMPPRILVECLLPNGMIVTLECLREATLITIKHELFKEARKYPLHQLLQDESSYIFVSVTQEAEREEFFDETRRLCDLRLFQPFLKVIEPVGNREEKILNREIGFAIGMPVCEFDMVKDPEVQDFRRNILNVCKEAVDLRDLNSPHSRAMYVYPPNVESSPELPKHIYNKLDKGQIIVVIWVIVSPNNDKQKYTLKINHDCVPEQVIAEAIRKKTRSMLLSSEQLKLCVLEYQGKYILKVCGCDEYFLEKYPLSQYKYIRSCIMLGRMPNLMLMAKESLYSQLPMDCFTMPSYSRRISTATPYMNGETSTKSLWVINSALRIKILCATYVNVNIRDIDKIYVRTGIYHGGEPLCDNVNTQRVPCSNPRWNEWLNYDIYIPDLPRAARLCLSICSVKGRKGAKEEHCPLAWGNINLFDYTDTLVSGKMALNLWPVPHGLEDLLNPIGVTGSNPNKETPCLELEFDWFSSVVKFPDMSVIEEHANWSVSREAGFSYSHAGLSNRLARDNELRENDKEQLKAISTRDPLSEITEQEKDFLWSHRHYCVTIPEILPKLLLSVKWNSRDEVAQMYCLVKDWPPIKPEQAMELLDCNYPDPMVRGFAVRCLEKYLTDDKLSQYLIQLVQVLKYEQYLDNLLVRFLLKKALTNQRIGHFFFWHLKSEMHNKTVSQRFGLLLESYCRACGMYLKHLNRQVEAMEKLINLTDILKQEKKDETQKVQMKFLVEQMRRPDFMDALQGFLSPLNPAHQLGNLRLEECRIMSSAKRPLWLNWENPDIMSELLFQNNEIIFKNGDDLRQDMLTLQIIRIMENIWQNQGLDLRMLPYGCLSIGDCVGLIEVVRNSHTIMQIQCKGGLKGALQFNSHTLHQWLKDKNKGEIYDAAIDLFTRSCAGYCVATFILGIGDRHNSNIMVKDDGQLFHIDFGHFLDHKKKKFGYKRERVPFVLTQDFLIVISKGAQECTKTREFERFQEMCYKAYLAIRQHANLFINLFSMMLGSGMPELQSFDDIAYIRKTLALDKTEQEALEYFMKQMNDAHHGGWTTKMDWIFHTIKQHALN
UniProt P51812, sequence (whole entry, looked up): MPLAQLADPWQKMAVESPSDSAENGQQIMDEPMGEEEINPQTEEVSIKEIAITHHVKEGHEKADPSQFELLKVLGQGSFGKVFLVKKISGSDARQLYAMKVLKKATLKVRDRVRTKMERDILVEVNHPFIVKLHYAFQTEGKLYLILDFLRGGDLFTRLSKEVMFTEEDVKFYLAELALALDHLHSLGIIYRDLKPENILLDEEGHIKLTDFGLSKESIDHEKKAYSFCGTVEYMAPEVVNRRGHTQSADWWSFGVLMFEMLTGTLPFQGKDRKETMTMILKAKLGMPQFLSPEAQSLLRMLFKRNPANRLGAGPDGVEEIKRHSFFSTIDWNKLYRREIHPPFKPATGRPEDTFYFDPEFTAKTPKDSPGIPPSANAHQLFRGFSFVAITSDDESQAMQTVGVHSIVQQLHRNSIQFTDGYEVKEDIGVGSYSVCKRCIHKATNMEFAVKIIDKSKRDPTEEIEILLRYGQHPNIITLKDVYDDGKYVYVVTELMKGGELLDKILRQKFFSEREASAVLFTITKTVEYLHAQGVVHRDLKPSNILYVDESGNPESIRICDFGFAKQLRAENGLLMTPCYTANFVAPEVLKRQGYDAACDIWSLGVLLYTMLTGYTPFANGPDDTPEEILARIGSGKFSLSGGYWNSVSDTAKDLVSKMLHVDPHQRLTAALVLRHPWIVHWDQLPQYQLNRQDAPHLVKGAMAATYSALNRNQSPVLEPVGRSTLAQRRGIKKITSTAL
UniProt Q9NYL2, sequence (whole entry, looked up): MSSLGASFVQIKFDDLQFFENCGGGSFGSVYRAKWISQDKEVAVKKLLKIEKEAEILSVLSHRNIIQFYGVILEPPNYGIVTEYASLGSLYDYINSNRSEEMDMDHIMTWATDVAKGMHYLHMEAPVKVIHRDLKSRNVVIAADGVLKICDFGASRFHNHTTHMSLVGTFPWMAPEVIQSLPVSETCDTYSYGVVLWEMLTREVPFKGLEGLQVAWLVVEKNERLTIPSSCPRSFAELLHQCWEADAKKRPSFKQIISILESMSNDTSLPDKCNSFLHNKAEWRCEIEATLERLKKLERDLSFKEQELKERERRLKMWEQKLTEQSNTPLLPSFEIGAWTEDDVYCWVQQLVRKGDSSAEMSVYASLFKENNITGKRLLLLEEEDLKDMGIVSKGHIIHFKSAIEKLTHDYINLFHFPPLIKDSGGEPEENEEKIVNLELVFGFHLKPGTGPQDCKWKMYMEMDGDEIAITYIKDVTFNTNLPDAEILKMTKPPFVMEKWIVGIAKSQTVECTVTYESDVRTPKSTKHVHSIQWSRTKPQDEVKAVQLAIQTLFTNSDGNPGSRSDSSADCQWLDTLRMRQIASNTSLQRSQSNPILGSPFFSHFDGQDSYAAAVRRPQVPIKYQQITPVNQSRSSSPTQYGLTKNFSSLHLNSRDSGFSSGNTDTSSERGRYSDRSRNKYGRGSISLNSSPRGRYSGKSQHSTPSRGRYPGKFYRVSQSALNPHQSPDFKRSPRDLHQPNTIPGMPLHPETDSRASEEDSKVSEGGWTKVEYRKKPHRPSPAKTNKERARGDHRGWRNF
UniProt O95747, sequence (whole entry, looked up): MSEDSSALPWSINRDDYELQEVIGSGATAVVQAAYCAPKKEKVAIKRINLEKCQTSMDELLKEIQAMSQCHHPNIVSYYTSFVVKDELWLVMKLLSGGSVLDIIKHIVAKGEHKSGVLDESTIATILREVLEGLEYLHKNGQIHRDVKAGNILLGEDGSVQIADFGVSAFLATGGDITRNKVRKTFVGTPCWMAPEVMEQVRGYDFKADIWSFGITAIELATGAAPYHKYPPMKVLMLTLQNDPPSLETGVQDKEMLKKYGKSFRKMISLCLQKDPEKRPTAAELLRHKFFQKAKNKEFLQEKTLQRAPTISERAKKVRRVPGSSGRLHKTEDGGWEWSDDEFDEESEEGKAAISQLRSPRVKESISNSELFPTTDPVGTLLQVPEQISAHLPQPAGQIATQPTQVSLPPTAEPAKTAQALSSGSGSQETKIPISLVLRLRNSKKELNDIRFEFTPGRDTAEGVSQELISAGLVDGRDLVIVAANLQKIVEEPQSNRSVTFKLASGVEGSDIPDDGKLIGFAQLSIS
UniProt Q05513, sequence (whole entry, looked up): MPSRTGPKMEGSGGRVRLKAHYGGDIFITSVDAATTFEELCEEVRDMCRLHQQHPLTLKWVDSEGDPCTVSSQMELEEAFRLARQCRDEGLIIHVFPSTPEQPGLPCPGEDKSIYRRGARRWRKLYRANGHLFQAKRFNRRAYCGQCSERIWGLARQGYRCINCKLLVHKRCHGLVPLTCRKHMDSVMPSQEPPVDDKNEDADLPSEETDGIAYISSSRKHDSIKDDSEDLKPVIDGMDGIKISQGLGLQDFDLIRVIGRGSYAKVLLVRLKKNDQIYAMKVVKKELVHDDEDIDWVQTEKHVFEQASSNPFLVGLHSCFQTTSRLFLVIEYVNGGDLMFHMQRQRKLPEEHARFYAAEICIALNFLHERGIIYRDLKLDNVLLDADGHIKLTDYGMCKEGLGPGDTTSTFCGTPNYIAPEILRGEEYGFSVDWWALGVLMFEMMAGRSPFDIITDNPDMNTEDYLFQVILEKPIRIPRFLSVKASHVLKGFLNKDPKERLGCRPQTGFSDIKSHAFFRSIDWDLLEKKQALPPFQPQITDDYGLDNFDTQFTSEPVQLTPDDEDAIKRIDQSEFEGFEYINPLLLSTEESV
UniProt Q9H0K1, sequence (whole entry, looked up): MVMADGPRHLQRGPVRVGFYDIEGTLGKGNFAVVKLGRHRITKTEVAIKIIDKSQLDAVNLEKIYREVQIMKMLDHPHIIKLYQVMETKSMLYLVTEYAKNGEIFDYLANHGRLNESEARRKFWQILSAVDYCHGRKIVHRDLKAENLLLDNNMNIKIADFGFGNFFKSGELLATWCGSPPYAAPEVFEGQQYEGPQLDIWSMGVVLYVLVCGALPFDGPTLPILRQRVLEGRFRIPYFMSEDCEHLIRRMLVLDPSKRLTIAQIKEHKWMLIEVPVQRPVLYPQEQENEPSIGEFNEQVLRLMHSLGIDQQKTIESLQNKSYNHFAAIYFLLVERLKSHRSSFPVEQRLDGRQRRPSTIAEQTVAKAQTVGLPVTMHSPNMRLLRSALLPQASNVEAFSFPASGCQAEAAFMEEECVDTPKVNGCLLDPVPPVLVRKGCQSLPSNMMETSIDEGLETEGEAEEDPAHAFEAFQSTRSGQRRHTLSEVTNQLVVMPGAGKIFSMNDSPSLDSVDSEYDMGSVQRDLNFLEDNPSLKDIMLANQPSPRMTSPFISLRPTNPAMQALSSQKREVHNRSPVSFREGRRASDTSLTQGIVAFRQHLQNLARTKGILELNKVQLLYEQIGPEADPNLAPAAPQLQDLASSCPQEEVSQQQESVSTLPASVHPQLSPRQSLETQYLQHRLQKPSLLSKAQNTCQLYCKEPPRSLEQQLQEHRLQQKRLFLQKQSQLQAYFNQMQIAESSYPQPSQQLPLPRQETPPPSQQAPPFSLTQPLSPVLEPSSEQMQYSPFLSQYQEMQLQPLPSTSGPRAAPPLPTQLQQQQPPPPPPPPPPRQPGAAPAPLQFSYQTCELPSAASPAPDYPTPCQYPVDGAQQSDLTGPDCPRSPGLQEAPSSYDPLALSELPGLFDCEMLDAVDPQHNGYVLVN
UniProt Q9HBY8, sequence (whole entry, looked up): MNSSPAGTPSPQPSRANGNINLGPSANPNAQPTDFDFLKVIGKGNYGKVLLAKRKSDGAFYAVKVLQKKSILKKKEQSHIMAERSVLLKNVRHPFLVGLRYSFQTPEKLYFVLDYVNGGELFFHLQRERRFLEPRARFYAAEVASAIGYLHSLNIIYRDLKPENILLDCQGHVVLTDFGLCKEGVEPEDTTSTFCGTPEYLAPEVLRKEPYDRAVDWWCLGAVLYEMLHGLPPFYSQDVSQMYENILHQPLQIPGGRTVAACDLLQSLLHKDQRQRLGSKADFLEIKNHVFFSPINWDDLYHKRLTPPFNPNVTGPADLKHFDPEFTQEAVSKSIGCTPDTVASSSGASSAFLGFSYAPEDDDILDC

Sample 1
SMILES: CC(=O)N[C@@H](Cc1c[nH]c2ccccc12)C(=O)N[C@@H](CCC(=O)C=[N+]=[N-])C(=O)OC(C)C
Species: C57BL/6 CES1-/- mice, EL4 tumour
Route: subcutaneous
Dose: 0.3 mg/kg/day DON equivalent
Time: 5 days
test	system	setting	scale	metabolite peak intensity
UPLC-MS/MS, item: N-acetyl-aspartyl-glutamate	EL4 tumour	–	–	3.72e+06 a.u. and 1.14e+06 a.u. and 3.57e+06 a.u. and 2.23e+06 a.u. and 1.59e+06 a.u. and 3.33e+06 a.u.
LC-MS/MS metabolomics, item: 2'-deoxyinosine	EL4 tumour	normalised to tissue mass	higher = more metabolite	463000 a.u. and 665000 a.u. and 738000 a.u. and 480000 a.u. and 390000 a.u. and 557000 a.u.
UPLC-MS/MS, item: leucine	EL4, tumour	normalised to tissue mass	higher = more metabolite	3e+09 a.u. and 2.67e+09 a.u. and 2.47e+09 a.u. and 2.07e+09 a.u. and 2.48e+09 a.u. and 2.45e+09 a.u.
UPLC-MS/MS metabolomics, item: N-acetylmethionine	EL4 tumour	normalised to tissue mass	higher = more metabolite	8.76e+06 a.u. and 7.82e+06 a.u. and 1.02e+07 a.u. and 9.36e+06 a.u. and 8.24e+06 a.u. and 9.53e+06 a.u.
LC-MS/MS metabolomics, item: 2-hydroxybutyrate/2-hydroxyisobutyrate	EL4 tumour	normalised to tissue mass	higher = more metabolite	9.13e+06 a.u. and 8.06e+06 a.u. and 1.16e+07 a.u. and 6.12e+06 a.u. and 6.74e+06 a.u. and 9.04e+06 a.u.

Sample 2
Cell line: HaCaT
Concentration: 100 µM
Time: 60 h
SMILES	viability [%]
CCOC(=O)[C@H](CCc1ccccc1)N[C@@H](C)C(=O)N(CC(=O)O)C1Cc2ccccc2C1	59.5
CC(C)(C)c1cc(C(C)(C)C)c(NC(=O)c2c[nH]c3ccccc3c2=O)cc1O	17.4
COc1ccc2[nH]c([S+]([O-])Cc3ncc(C)c(OC)c3C)nc2c1 (centres unmarked)	122
CC1(C)C(C=C(Cl)Cl)C1C(=O)OCc1cccc(Oc2ccccc2)c1 (centres unmarked)	66.5
O=C(COc1ccc(Cl)cc1)N1CCN(Cc2ccc3c(c2)OCO3)CC1	79.6
CC(=O)[C@@]1(O)CC[C@H]2[C@@H]3C[C@H](C)C4=CC(=O)C=C[C@]4(C)[C@@]3(F)[C@@H](O)C[C@@]21C	137

Sample 3
Compound: O=C(Nc1cnc(Oc2ccc(F)cc2)nc1)N1CCc2ncccc2[C@@H]1c1ccc(F)cc1
Read-out: cell-free assay
Technique: competition with immobilised ligand
Concentration: 1 µM
target	remaining binding [%]
MAP2K5 (Homo sapiens, UniProt Q13163)	83
OXSR1 (Homo sapiens, UniProt O95747)	93
NIM1K (Homo sapiens, UniProt Q8IY84)	90
PRKD2 (Homo sapiens, UniProt Q9BZL6)	85
CLK3 (Homo sapiens, UniProt P49761)	88
PIK3CA (Homo sapiens, UniProt P42336)	100
CASK (Homo sapiens, UniProt O14936)	94
CDK16 (Homo sapiens, UniProt Q00536)	75
NTRK1 (Homo sapiens, UniProt P04629)	100
PAK3 (Homo sapiens, UniProt O75914)	100
ITK (Homo sapiens, UniProt Q08881)	90
GRK7 (Homo sapiens, UniProt Q8WTQ7)	100
MAPK10 (Homo sapiens, UniProt P53779)	88
STK33 (Homo sapiens, UniProt Q9BYT3)	69
PRKD1 (Homo sapiens, UniProt Q15139)	100
RIOK2 (Homo sapiens, UniProt Q9BVS4)	96
PIK3CA (Homo sapiens, UniProt P42336, C420R)	100
SIK3 (Homo sapiens, UniProt Q9Y2K2)	86
EGFR (Homo sapiens, UniProt P00533)	100
PDPK1 (Homo sapiens, UniProt O15530)	97
NEK9 (Homo sapiens, UniProt Q8TD19)	90
TLK1 (Homo sapiens, UniProt Q9UKI8)	90
IRAK4 (Homo sapiens, UniProt Q9NWZ3)	95
RPS6KB1 (Homo sapiens, UniProt P23443)	89
LCK (Homo sapiens, UniProt P06239)	83

Sample 4
SMILES: CSc1nc(-c2ccnc(N[C@@H](C)c3ccccc3)c2)c(-c2ccc(F)cc2)[nH]1 (racemic)
Read-out: enzyme activity
Action: inhibitor
Concentration: 0.5 µM
Reference: control
target	remaining activity
SGK2 (Homo sapiens, UniProt Q9HBY8)	96.1%
PAK6 (Homo sapiens, UniProt Q9NQU5)	93.5%
SIK2 (Homo sapiens, UniProt Q9H0K1)	97.2%
FLT1 (Homo sapiens, UniProt P17948)	71.5%
CAMK1 (Homo sapiens, UniProt Q14012)	96.2%
JAK1 (Homo sapiens, UniProt P23458)	104%
Cyclin-dependent kinase 2, with cyclin E (CDK2, Homo sapiens, UniProt P24941)	88%
MAP3K20 (Homo sapiens, UniProt Q9NYL2)	85.7%
CSNK1D (Homo sapiens, UniProt P48730)	41.9%
PRKCQ (Homo sapiens, UniProt Q04759)	111%
CLK1 (Homo sapiens, UniProt P49759)	96.8%
PRKCZ (Homo sapiens, UniProt Q05513)	111%
TYRO3 (Homo sapiens, UniProt Q06418)	108%
EPHA2 (Homo sapiens, UniProt P29317)	98.8%
IGF1R (Homo sapiens, UniProt P08069)	101%
CSNK1E (Homo sapiens, UniProt P49674)	72%
CLK2 (Homo sapiens, UniProt P49760)	102%
RPS6KA3 (Homo sapiens, UniProt P51812)	91%
TEC (Homo sapiens, UniProt P42680)	120%
SRPK1 (Homo sapiens, UniProt Q96SB4)	106%
CAMKK1 (Homo sapiens, UniProt Q8N5S9)	104%
PAK1 (Homo sapiens, UniProt Q13153)	97.7%
EPHA6 (Homo sapiens, UniProt Q9UF33)	75.8%

For quick reference, copied from above (sample 3):
target	remaining binding [%]
PDPK1 (Homo sapiens, UniProt O15530)	97
MAPK10 (Homo sapiens, UniProt P53779)	88
STK33 (Homo sapiens, UniProt Q9BYT3)	69
PRKD1 (Homo sapiens, UniProt Q15139)	100
NIM1K (Homo sapiens, UniProt Q8IY84)	90
RPS6KB1 (Homo sapiens, UniProt P23443)	89
PIK3CA (Homo sapiens, UniProt P42336)	100
PAK3 (Homo sapiens, UniProt O75914)	100
MAP2K5 (Homo sapiens, UniProt Q13163)	83
NTRK1 (Homo sapiens, UniProt P04629)	100
